{"data": "Results pooled from the literature", "cell line": "HepG2", "note": "Each line is one published result; not all experiments were run side by side. ± gives the spread as reported."}
{"Compound": "COc1ccc2c(c1)c1c(n2CO)CN2CCc3cc4c(cc3C2C1)OCO4 (stereo not shown)", "assay": "Western blot, item: PCSK9", "conditions": "5 µM, 24 h, unit not given", "how to read": "reference: vehicle", "endpoint": "protein level", "value": 0.86}
{"Compound": "CC1=C(/C=C/C(C)=C/C=C/C(C)=C/C(=O)Nc2ccc(O)cc2)C(C)(C)CCC1", "conditions": "MMP IC50, 1 h, together with: FCCP 1 µM", "how to read": "reference: basal OCR", "endpoint": "maximal OCR", "value": "79 ± 2.11%"}
{"Compound": "COc1cccc2c1C(=O)c1c(O)c3c(c(O)c1C2=O)C[C@@](O)(C(=O)CO)C[C@@H]3O[C@H]1C[C@H](N)[C@H](O)[C@H](C)O1", "assay": "real-time PCR, item: CDK1", "conditions": "0.1 µM, 8 h, unit not given", "how to read": "reference: untreated", "endpoint": "mRNA level", "value": "0.31 ± 0.09"}
{"Compound": "O=C(Nc1nc2ccc([N+](=O)[O-])cc2s1)C(c1ccccc1)S(=O)(=O)O (stereo not shown)", "assay": "item: phospho-AKT/AKT", "conditions": "16 µM, 2 h, together with: insulin 50 nM 30 min", "how to read": "reference: vehicle", "endpoint": "insulin-induced AKT phosphorylation", "value": "260%"}
{"Compound": "CC12NC(=O)NC(c3c(ccc4ccccc34)O1)C2C(=O)Nc1ccccc1 (stereo not shown)", "assay": "cell growth or viability, MTT", "conditions": "10 µM", "endpoint": "inhibition", "value": "16.5%"}
{"Compound": "NC(N)=NC(=O)c1nc(Cl)c(N2CCCCCC2)nc1N", "assay": "phospholipidosis induction, inducer, high-content imaging", "conditions": "24 h, confirmation screen", "endpoint": "EC50", "value": "15.2 ± 7.7 µM"}
{"Compound": "C/C(=N\\N=c1/[nH]c(C)c(/N=N/c2ccc(C)cc2)s1)c1ccccn1", "assay": "cell growth, SRB", "conditions": "100 µg/mL, 48 h", "endpoint": "inhibition", "value": "> 75%"}
{"Compound": "CC1=C(C(=O)Nc2ccccc2)C(c2ccc3ccc4cccc5ccc2c3c45)NC(=S)N1 (stereo not shown)", "assay": "cell growth or viability, MTT", "conditions": "10 µM", "endpoint": "inhibition", "value": "26.5%"}
{"Compound": "CCN1C(=O)C(C)S/C1=N/N=C(\\C)c1ccccn1 (stereo not shown)", "assay": "cell growth or viability, SRB", "conditions": "100 µg/mL, 48 h", "endpoint": "inhibition", "value": "60.2%"}
{"Compound": "COc1cc2c(cc1OCc1ccc(C)cc1)CCN1Cc3c(c4ccccc4n3CO)CC21 (stereo not shown)", "assay": "Western blot, item: PCSK9", "conditions": "5 µM, 24 h, unit not given", "how to read": "reference: vehicle", "endpoint": "protein level", "value": 0.69}
{"Compound": "N#CCNC(=O)c1ccc(-c2ccnc(Nc3ccc(N4CCOCC4)cc3)n2)cc1", "assay": "hepcidin mRNA reduction, item: HAMP mRNA", "conditions": "6 h, 50% effect level, together with: BMP6 10 ng/mL", "endpoint": "EC50", "value": "0.65 ± 0.2 µM"}
{"Compound": "COc1cc2c(cc1OCc1ccccc1)CCN1Cc3c(c4c(Cl)cccc4n3CO)CC21 (stereo not shown)", "assay": "Western blot, item: PCSK9", "conditions": "5 µM, 24 h, unit not given", "how to read": "reference: vehicle", "endpoint": "protein level", "value": 0.86}
{"Compound": "N/C(CC(O)c1ccnc2ccccc12)=N\\c1ccc(F)cc1 (stereo not shown)", "assay": "cell growth or viability", "endpoint": "CC50", "value": "> 200 µM"}
{"Compound": "COc1ccc2c(c1)c1c(n2CO)CN2CCc3cc(OCc4ccc(C)cc4)c(OC)cc3C2C1 (stereo not shown)", "assay": "Western blot, item: PCSK9", "conditions": "5 µM, 24 h, unit not given", "how to read": "reference: vehicle", "endpoint": "protein level", "value": "0.95 ± 0.08"}
{"Compound": "COc1ccc(-c2ccc(-c3ccc(C(=N)N)nc3)s2)cc1Cl", "assay": "real-time PCR, item: topoisomerase II", "conditions": "0.1 µM, 8 h, unit not given", "how to read": "reference: untreated", "endpoint": "mRNA level", "value": "0.57 ± 0.08"}
{"Compound": "CC(C)(C)[C@]1(O)CCN2C[C@H]3c4ccccc4CCc4cccc(c43)[C@@H]2C1", "assay": "phospholipidosis induction, LipidTOX high-content imaging", "conditions": "24 h, primary qHTS", "endpoint": "EC50", "value": "6.3 µM"}
{"Compound": "COc1ccc2c(c1)c1c(n2CO)CN2CCc3cc(OC)c(OCc4ccccc4F)cc3C2C1 (stereo not shown)", "assay": "Western blot, item: PCSK9", "conditions": "5 µM, 24 h, unit not given", "how to read": "reference: vehicle", "endpoint": "protein level", "value": "1.02 ± 0.15"}
{"Compound": "CC12NC(=O)NC(c3c(ccc4ccccc34)O1)C2C(=O)Nc1cccnc1 (stereo not shown)", "assay": "cell growth or viability, MTT", "conditions": "10 µM", "endpoint": "inhibition", "value": "63.5%"}
{"Compound": "COc1ccc2c(c1)c1c(n2CO)CN2CCc3cc(OC)c(OCc4cccc(F)c4)cc3C2C1 (stereo not shown)", "assay": "Western blot, item: PCSK9", "conditions": "5 µM, 24 h, unit not given", "how to read": "reference: vehicle", "endpoint": "protein level", "value": "0.84 ± 0.08"}
{"Compound": "CCCCCCCC[N+](CCCCCCCC)(CCCCCCCC)CCCCCCCC.[Br-]", "conditions": "MMP IC50, 1 h, together with: FCCP 1 µM", "how to read": "reference: basal OCR", "endpoint": "maximal OCR", "value": "224.1 ± 1.98%"}
{"Compound": "O=C1c2c(O)ccc(O)c2C(=O)c2c(NCCNCCO)ccc(NCCNCCO)c21", "assay": "cell proliferation", "endpoint": "EC50", "value": "0.12 µM"}
{"Compound": "CCc1ccc(CCOc2ccc(CC3SC(=O)NC3=O)cc2)nc1 (stereo not shown)", "assay": "Bayesian modelling, item: mitochondrial stress biomarkers", "endpoint": "point of departure", "value": "10 to 100 µM"}
{"Compound": "COc1ccc2cc3[n+](cc2c1OC)CCc1cc2c(cc1-3)OCO2", "assay": "Western blot, item: PCSK9", "conditions": "5 µM, 24 h, unit not given", "how to read": "reference: vehicle", "endpoint": "protein level", "value": 0.71}
{"Compound": "CCN1C(=O)/C(=C\\c2ccc(OC)cc2)S/C1=N/N=C(\\C)c1ccccn1", "assay": "cell growth or viability, SRB", "conditions": "100 µg/mL, 48 h", "endpoint": "inhibition", "value": "62.7%"}
{"Compound": "COc1ccc(-c2ccc(-c3ccc(C(=N)N)nc3)s2)cc1", "assay": "real-time PCR, item: TXNRD1", "conditions": "0.1 µM, 8 h, unit not given", "how to read": "reference: untreated", "endpoint": "mRNA level", "value": "1.32 ± 0.14"}
{"Compound": "CCN1C(=O)/C(=C\\c2ccc(F)cc2)S/C1=N/N=C(\\C)c1ccccn1", "assay": "cell growth or viability, SRB", "conditions": "100 µg/mL, 48 h", "endpoint": "inhibition", "value": "66.9%"}
{"Compound": "CN1CCN(c2nc3cc(C(F)(F)F)ccc3n3cccc23)CC1", "assay": "phospholipidosis induction, inducer, high-content imaging", "conditions": "24 h, confirmation screen", "endpoint": "EC50", "value": "10 ± 4 µM"}
{"Compound": "C/C(=N\\N=C1/NC(=O)/C(=C\\c2ccc(Cl)cc2)S1)c1ccccn1", "assay": "cell growth or viability, SRB", "conditions": "100 µg/mL, 48 h", "endpoint": "inhibition", "value": "61%"}
{"Compound": "OCCN1CCN(CC/C=C2/c3ccccc3Sc3ccc(C(F)(F)F)cc32)CC1", "assay": "phospholipidosis induction, inducer, high-content imaging", "conditions": "24 h, primary screen", "endpoint": "EC50", "value": "1.4 µM"}
{"Compound": "CN(C)c1ccc(N=NS(=O)(=O)O)cc1", "assay": "Seahorse respirometry", "conditions": "concentration not given, 1 h, dosed at MMP IC50, together with: 1 µM FCCP", "how to read": "reference: basal", "endpoint": "OCR", "value": "137.8 ± 0.96%"}
{"Compound": "COc1ccc(/C=C2/S/C(=N/N=C(\\C)c3ccccn3)NC2=O)cc1", "assay": "cell growth or viability, SRB", "conditions": "100 µg/mL, 48 h", "endpoint": "inhibition", "value": "66.9%"}
{"Compound": "COc1cc2c(cc1OCc1cccc(F)c1)CCN1Cc3c(c4ccccc4n3CO)CC21 (stereo not shown)", "assay": "Western blot, item: PCSK9", "conditions": "5 µM, 24 h, unit not given", "how to read": "reference: vehicle", "endpoint": "protein level", "value": "0.82 ± 0.09"}
{"Compound": "CCn1c(C)c(/N=N/c2ccc(C)cc2)s/c1=N/N=C(\\C)c1ccccn1", "assay": "cell growth or viability, SRB", "conditions": "100 µg/mL, 48 h", "endpoint": "inhibition", "value": "66.1%"}
{"Compound": "COc1ccc(CC/N=C(\\N)CC(O)c2cc3ccccc3c3ccccc23)cc1 (stereo not shown)", "assay": "cell growth or viability", "endpoint": "CC50", "value": "9 µM"}
{"Compound": "CSc1ccc2c(c1)C(N1CCN(C)CC1)Cc1ccccc1S2 (stereo not shown)", "assay": "phospholipidosis induction, inducer, high-content imaging", "conditions": "24 h, primary screen", "endpoint": "EC50", "value": "3.5 µM"}
{"Compound": "Nc1ccc2c(c1)C(=O)c1ccccc1C2=O", "assay": "Seahorse respirometry", "conditions": "concentration not given, 1 h, dosed at MMP IC50, together with: 1 µM FCCP", "how to read": "reference: basal", "endpoint": "OCR", "value": "164 ± 3.4%"}
{"Compound": "CC12NC(=S)NC(c3c(ccc4ccccc34)O1)C2C(=O)Nc1cccnc1 (stereo not shown)", "assay": "cell growth or viability, MTT", "conditions": "10 µM", "endpoint": "inhibition", "value": "46.5%"}
{"Compound": "CCn1c(C)cs/c1=N/N=C(\\C)c1ccccn1", "assay": "cell growth or viability, SRB", "conditions": "100 µg/mL, 48 h", "endpoint": "inhibition", "value": "62.7%"}
{"Compound": "COc1cc2nc(N3CCN(C(=O)OCc4ccccc4)[C@H](C(=O)NC(C)(C)C)C3)nc(N)c2cc1OC", "assay": "phospholipidosis induction, inducer, high-content imaging", "conditions": "24 h, confirmation screen", "endpoint": "EC50", "value": "4 ± 1.7 µM"}
{"Compound": "COc1cc(-c2ccc(-c3ccc(C(=N)N)nc3)s2)cc(OC)c1OC", "assay": "real-time PCR, item: CDK1", "conditions": "0.1 µM, 8 h, unit not given", "how to read": "reference: untreated", "endpoint": "mRNA level", "value": "0.3 ± 0.04"}
